# Results from different studies.
# Each numbered part is a random draw from the data of one study; scales do not carry over between parts. Changes are numbered by the printed parent chain.

# Block 1 — method: protein binding microarray; molecule type: double-stranded DNA, one strand shown; medium: in vitro; tested at: not given; reference: not given; reading: higher = stronger binding
# Target: Histone acetyltransferase KAT6A, winged helix 1, GST fusion (KAT6A, Homo sapiens, UniProt Q92794, residues 1-85)
# Setting: 8-mer, flanks averaged, mean of 2 arrays, mostly near background
# Residues (chain): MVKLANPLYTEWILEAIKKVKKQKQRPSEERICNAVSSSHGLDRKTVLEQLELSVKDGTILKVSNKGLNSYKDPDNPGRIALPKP
Strand,E-score
ATGAATTC,-0.0754
CGCCTTAC,0.161
CGAACTAG,-0.116
ACGTCCCT,-0.087
CGTGAGTA,0.0133
ACGCTTTA,0.0347
CAGTGGAA,-0.0465
GTTCTCCA,-0.232
ATCGCGGA,0.178
CGACATTC,-0.0371
CCTAAGCG,0.193
ACGCATGA,0.0699
AGTCATTG,-0.304
GAAAATGA,-0.127
GCTACAAA,-0.2
ATTACATA,-0.253
ATCCGCAT,0.144
GGCTCACA,-0.0925
TCGCATAA,-0.0338
CGCGCCCA,0.315
ACGTTCTG,-0.121
GTTCGCGA,0.0461
CTGTCGCA,0.113
GTGTGTCA,-0.0524
CCCCTAAC,0.0647

# Block 2 — method: RNA Bind-n-Seq; molecule type: RNA; medium: in vitro; tested at: 200 nM; setting: whole 134-nt RNA, ends assumed; added: 150 mM LiCl; reference: input library; reading: higher = stronger binding; library: 7-deaza-guanosine replaces G
# Target: Fragile X messenger ribonucleoprotein 1, C-terminal low-complexity region (Fmr1, Mus musculus, UniProt P35922)
Strand,log2 enrichment
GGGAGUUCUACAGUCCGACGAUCUGGGAGGUGGAUUUUGUUUAUGUUUUUAGCUCAUUUCCAGGGGUGGGAAUUUUUUUUUAAUAUGUGUCAUGAAUAAAGUUGUUUUUGAAAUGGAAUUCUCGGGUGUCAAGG,-0.175
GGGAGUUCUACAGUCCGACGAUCUCCUCAAGUCCUGUGCUACACAUCGUAUGUACCGAAUCGGGUGGUGGUGGGGAAAGUAUUAUGUUACGCCGUUCGGAUCUGCACUUCCAGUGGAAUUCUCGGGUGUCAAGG,0.0985
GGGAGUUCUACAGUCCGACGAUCUAACUUUAGAGGAGGAUCUGAUGGAUAUGUCAGUGGACGUGGAUUUGGGGAUGGCUAUAAUGGGUAUGGAGGAGGACCUGGAGGUGGCAAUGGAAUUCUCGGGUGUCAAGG,0.418
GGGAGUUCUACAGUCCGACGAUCAGUCCUGUGCUACACAUCGUAUGUACCGAAUCAAACCCCCCCAAAUUUAAACCCAAAAAAGUAUUAUGUUACGCCGUUCGGAUCUGCACUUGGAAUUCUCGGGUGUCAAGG,1.02
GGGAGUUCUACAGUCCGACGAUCCUGUGCUACACAUCGUAUGUACCGAAUCGGGGUUUUUGGGGAAAAAAAGGGGAAAAAGGGGAAAGUAUUAUGUUACGCCGUUCGGAUCUGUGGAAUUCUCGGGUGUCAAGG,-0.492
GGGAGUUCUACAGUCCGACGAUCCACAGACAACACGCACCCACACAGACACAGAGGGAAGGGGUUGGGAUGGGGACAGGGUGCACAGCAGGGCGGGGUAGGACCCCAGCCCAUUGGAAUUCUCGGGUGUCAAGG,-0.0664
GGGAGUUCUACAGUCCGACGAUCCUCAAGUCCUGUGCUACACAUCGUAUGUACCGAAUCGGGAAAGGGUGGGAGGGAAAGUAUUAUGUUACGCCGUUCGGAUCUGCACUUCCAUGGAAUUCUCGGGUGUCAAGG,-0.351
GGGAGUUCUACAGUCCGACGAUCUUGUGAGCUGCAAGCUAGGCUGCAGGCCCAGGAAGAACAGCAUCAGGAAGUCCAGAAGGCAAAAGAAGCAGACAUAGAGAAGCUGAACCAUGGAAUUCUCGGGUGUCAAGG,-2.23
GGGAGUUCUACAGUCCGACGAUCCUCAAGUCCUGUGCUACACAUCGUAUGUACCGAAUCGGGGCGGGCGGGGCGGGAAAGUAUUAUGUUACGCCGUUCGGAUCUGCACUUCCAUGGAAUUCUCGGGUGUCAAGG,-0.554
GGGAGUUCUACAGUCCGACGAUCGCAGGAAGUAAAAACAAAUGGAAAUGCUUCGGAUAGUGGCAGGGGUGGGGAUUGCUAAGGAAAGGGUGGGAUGGGAGUGGGUAAAGAGUUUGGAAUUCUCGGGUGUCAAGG,1.67
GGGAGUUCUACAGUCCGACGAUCCUCAAGUCCUGUGCUACACAUCGUAUGUACCGAAUCGGCCCGGCCCGGCCCGGAAAGUAUUAUGUUACGCCGUUCGGAUCUGCACUUCCAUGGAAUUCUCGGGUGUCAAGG,0.299

# Block 3 — target: CCNE1, cyclin fold, Cln2 fusion (human); method: yeast growth competition, sequencing; medium: yeast; setting: weak parent motif; reference: not given; reading: higher = stronger binding
# Starting sequence: PKN2 docking peptide (human); VSAVQKLDFSDTM
Change,normalised enrichment score
VSEVQKLDFSDTM [A3E],-0.061
VSAIQKLDFSDTM [V4I],0.34
VSAVQKLGFSDTM [D8G],0.11
VSAVQKLDFSDPM [T12P],1.59
VSAVQPLDFSDTM [K6P],-0.0593
VSIVQKLDFSDTM [A3I],1.08
VSAVQKLDFSDTT [M13T],0.857
VSAVQKLDFRDTM [S10R],0.446
VSAVQKLYFSDTM [D8Y],0.868
VSAVQKLDFSKTM [D11K],0.281
VSAVQKLDFSDCM [T12C],0.83
VSAVQKLDFYDTM [S10Y],1.1
VSAVQKSDFSDTM [L7S],-0.338
VKAVQKLDFSDTM [S2K],0.175
VSRVQKLDFSDTM [A3R],-0.241
VRAVQKLDFSDTM [S2R],0.878
VSAVQKLDFSLTM [D11L],0.848
VSAVQKLDFSDTE [M13E],1.21
VSAVQKLDFLDTM [S10L],-0.207

# Block 4 — method: RNA Bind-n-Seq; molecule type: RNA; medium: in vitro; tested at: 365 nM; reference: no-protein control; reading: higher = stronger binding
# Target: RNA binding protein fox-1 homolog 2, RRM domain, GST-SBP tag (RBFOX2, Homo sapiens, UniProt O43251-10, residues 100-194)
# Setting: natural RNA segment, single round, ends assumed
# Construct (chain): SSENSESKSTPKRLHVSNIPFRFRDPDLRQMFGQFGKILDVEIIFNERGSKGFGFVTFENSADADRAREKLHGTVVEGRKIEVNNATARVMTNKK
Strand,RBNS enrichment (R)
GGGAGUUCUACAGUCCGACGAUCAUUUUCACAUCCUUCCAUGUAUUUAUCUUGAAGAGAUAAGCACAGAAGAGAAGGUGCUCACUAACAGAGGUACAUUACUGCAAUGUUCUCUUAACAGUUAAACAAGCUGUUGGAAUUCUCGGGUGCCAA,0.273
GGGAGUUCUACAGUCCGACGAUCUCGUGAGUCAUUUUACUUUAAAAGGGAAAAACAAAUUUGUAGCAACUCUGAAGUAUCAAGAGUUUUAACUACUUGUCUCUCUUUUGCUAAGAAGGGAUUUUUGAAUAUGCUGGAAUUCUCGGGUGCCAA,0.414
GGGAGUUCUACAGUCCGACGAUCUCGUGGAGUCAUUGUGUUCAGCUCUGAGAAGAACAAAGAUUCAUAGUUCUGUACAUGUGGCUGGAUUUAAAUAUCCUGUUUUUGAUACUAAUUUUGAAAGUCAUGUAACUUGGAAUUCUCGGGUGCCAA,0.464
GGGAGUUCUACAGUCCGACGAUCUUCCCUUGUCGAUGCUGAUUCCUGGAGUCAGUUGGUUAUGAGUAGUAUAAGGGAUUCCCACUACAAAUGCAGUGUUCCCAUCUCAAAGCAAAACUGUAGUUCCCAAAAGAUGGAAUUCUCGGGUGCCAA,0.319
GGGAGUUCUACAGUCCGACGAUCGUCUCAUUCCAUGACUAUAGGUGAGAGAAUUCUUUCCUAAGAGGGUUUGAUACCAAUAGGGGAAAAUGUAAAAUGUUCAGUCUUUAUGACAACCUGGCAUAAAGGAGUCAUGGAAUUCUCGGGUGCCAA,0.288
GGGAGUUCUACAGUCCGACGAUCGUGCAUGUUGCCAUGAGGCCUUUCCCCAGUGUGGCCCCAGCCCGACAGGCAUGCACCAGUGCCGCCUGUGCCCACGUGUGCAGACUGUGGCUGCAGAGACCUUGCGACCAUGGAAUUCUCGGGUGCCAA,0.355
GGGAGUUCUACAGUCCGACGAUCAGCAGUUUGCCUGGUCAGUCAGCUUUUGGGGGUCCAUCAAAGGAGGUUGCUGACCUGACCGUGAGUGCUUCAGUAUCUGGUUUGUGUCAGAACCAGACGCCAACUUUGUAUGGAAUUCUCGGGUGCCAA,0.465
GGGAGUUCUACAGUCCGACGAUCAAGCCUUCAUCUUCUUGAGUACCCAAACCAGGCUUCAGGUGUCCUUUGAGGAUAGCCAGGUUUGAAAUUUUUAGUUUCUCAGGAAGAGCUCUUCUAUGUGGCAGGGGCUGUGGAAUUCUCGGGUGCCAA,1.1
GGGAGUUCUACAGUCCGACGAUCAUUUUUUUGUAAUUAUUAUAUUCUAGUUUGGAGUACUUGCUGUAGGAUUCAAGCUGUCUUUGCACUAGCUCUAAAGAAGAUUUUCUUCUGGUUUUAGAGAACUAAUUUUGUGGAAUUCUCGGGUGCCAA,0.899
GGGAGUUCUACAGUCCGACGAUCAGGAUUGUGGGAGGCUUCACAACCCCUGCUUUCCUGACUUCCUCUUCUGCCCAACACUGGGUGCCCCUUCCCAGUUUCCCAGCAGGGGCUUCAUGGGCCACCGUCAGUGGUGGAAUUCUCGGGUGCCAA,0.21
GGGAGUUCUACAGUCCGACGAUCAUGGCCCUGUAGCUCUGAAUGCUAUUUGUGUAACUGAAAGGUUGCACUCUAGGGUGAACCAAGCUAUAAAAGCCCAUGCUUAAAUAAAAAUUAUGUCCAAAAGCCAUUGAUGGAAUUCUCGGGUGCCAA,0.398
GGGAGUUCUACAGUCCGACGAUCUUCACAUUUAACCUUAAACACCUAUGCAGUCAUGUUGGGGGAGUGUCCCAAUGUUACCUCAACACCACGAAGCUUAUUUCUAUACUGGAGUUCUUCAGUAUAGAAAGUGGUGGAAUUCUCGGGUGCCAA,0.319

# Repeated from above (block 3):
Change,normalised enrichment score
VKAVQKLDFSDTM [S2K],0.175
VSAVQKLYFSDTM [D8Y],0.868
VSAVQKLGFSDTM [D8G],0.11
VSAIQKLDFSDTM [V4I],0.34
VSAVQKLDFSLTM [D11L],0.848
VSAVQKLDFLDTM [S10L],-0.207
VSAVQPLDFSDTM [K6P],-0.0593
VSAVQKLDFSKTM [D11K],0.281
